Measurements of several laboratories.
Protocols differ between the studies behind these lines. Several values in a cell are separate wells, animals, samples, runs or records. Numbers after ± are the reported error.

Structure (SMILES) = CCn1ccc(-c2cc(-c3cnn(C)c3)cc([C@@H](C)NC(=O)c3cc(OCCN(C)C)ccc3C)c2)n1; system = mouse C57BL/6J, male, plasma; setting = intravenous, 10 mg/kg; measurement = AUC extrapolated percentage; result = 0.109%
Structure (SMILES) = CC[C@H](C)[C@H](NC(=O)[C@H](C)NC(=O)[C@H](CCCCN)NC(=O)[C@H](CCCCN)NC(=O)[C@@H](N)CCCNC(=N)N)C(=O)N[C@@H](CCCCN)C(=O)N[C@@H](CC(C)C)C(=O)N[C@H](C(=O)N[C@@H](CCCCN)C(=O)N[C@@H](CCCCN)C(=O)N[C@@H](CC(C)C)C(=O)N[C@H](C(=O)N[C@@H](CCCCN)C(=O)N[C@@H](CCCCN)C(=O)N[C@@H](CC(C)C)C(=O)N[C@@H](CCCCN)C(=O)N[C@@H](CCCCN)C(=O)N[C@@H](C)C(=O)N[C@@H](CC(C)C)C(=O)N[C@@H](CCCCN)C(=O)O)C(C)C)C(C)C; system = human red blood cells; setting = 0.25 mg/L, 1 h; measurement = hemolysis; result = 0.0177% and 0.0707% and 0.23%
Structure (SMILES) = CCCCC[C@H]1C(=O)N[C@H](C)C(=O)N(C)[C@@H](CCCCC)C(=O)N(C)[C@H](C)C(=O)N(C)[C@@H](CCCCC)C(=O)N(C)[C@H](C)C(=O)N(C)[C@@H](CCCCC)C(=O)N(C)[C@H](C)C(=O)N1C; assay = PAMPA; setting = 500 µM, pH 7.4, UV/ELSD/MS detection; measurement = log Papp; result = -5.36
Structure (SMILES) = CN1Cc2cc(Cl)ccc2-n2c(nnc2C2CCN(c3cccc([18F])n3)CC2)C1; system = C57BL/6 mouse male, pancreas; setting = intravenous, 3.7 MBq, 60 min; measurement = tissue uptake; result = 5.77 ± 1.31 %ID/g
Structure (SMILES) = C=CC(=O)Nc1cccc(Cn2ncc3cnc(Nc4cnn(CCOC)c4)nc32)c1; system = Sprague-Dawley rat female, serum; setting = oral, 180 mg/kg, day 28, 28-day subacute toxicity; measurement = serum albumin; result = 22 ± 4.97 g/L
Structure (SMILES) = CC(C)[C@H](NC(=O)[C@@H](NC(=O)[C@H](CCCNC(=N)N)NC(=O)[C@H](CCCNC(=N)N)NC(=O)[C@H](CCCNC(=N)N)NC(=O)[C@H](CCC(N)=O)NC(=O)[C@H](CCCNC(=N)N)NC(=O)[C@H](CCCNC(=N)N)NC(=O)[C@H](CCCCN)NC(=O)[C@H](CCCCN)NC(=O)[C@H](CCCNC(=N)N)NC(=O)CN)[C@@H](C)O)C(=O)N[C@H](C(=O)N[C@@H](CO)C(=O)N1CCC[C@H]1C(=O)O)[C@@H](C)O; system = ICR mice, male, stomach; setting = intranasal, 10 mg/kg daily, 4 weeks; measurement = organ weight; result = 0.38 ± 0.04 g
Structure (SMILES) = COc1cnc2cccc(N3CCc4c(cc(Cn5ccnc5)cc4-c4cn(C)nc4C(F)(F)F)C3=O)c2c1; system = BALB/c nude mice, MV4-11 xenograft; setting = intraperitoneal, 50 mg/kg, day 35; measurement = body weight; result = 24.6 g and 22.6 g and 25.8 g and 24.3 g and 24.5 g
Structure (SMILES) = CC(C)=CCC/C(C)=C\CCn1cc(CC(P(=O)(O)O)P(=O)(O)O)nn1; assay = qRT-PCR, item: Slco2a1 and Slc10a1; system = CD-1 mice, liver; setting = intravenous, 0.3 mg/kg; scale = baseline: control; measurement = mRNA level; result = increased
Structure (SMILES) = CC(C)[C@@H]1NC(=O)CNC(=O)[C@H](CC(N)=O)NC(=O)[C@H](CCCNC(=N)N)NC(=O)[C@H](Cc2ccc(O)cc2)NC(=O)[C@H](C(C)C)NC(=O)[C@@H](NC(=O)[C@@H](NC(=O)[C@H](CC(N)=O)NC(=O)[C@H](Cc2c[nH]c3ccccc23)NC(=O)[C@H](C)NC(=O)[C@H](Cc2ccccc2)NC(=O)CNC(=O)[C@H](CCCCN)NC(=O)[C@H](Cc2ccccc2)NC(=O)[C@H](Cc2ccccc2)NC(=O)[C@H](CCCCN)NC(=O)OCC2c3ccccc3-c3ccccc32)C(C)C)CSSC[C@@H](C(=O)N[C@@H](Cc2c[nH]cn2)C(=O)N[C@@H](CCCNC(=N)N)C(=O)N[C@@H](CCCNC(=N)N)C(=O)N[C@@H](C)C(=O)N[C@@H](CC(N)=O)C(N)=O)NC(=O)[C@H](C(C)C)NC(=O)[C@H](CCCNC(=N)N)NC1=O; system = ICR mouse, blood; setting = intramammary, 10 mg/kg, day 5, 3 d dosing; measurement = MCV; result = 40.9 ± 0.54 fL
Structure (SMILES) = CC[C@H](C)[C@H](NC(=O)[C@H](CCCCN)NC(=O)CNC(=O)[C@H](CC(C)C)NC(=O)[C@H](Cc1ccccc1)NC(=O)[C@H](CCCCN)NC(=O)[C@H](CO)NC(=O)[C@H](Cc1ccccc1)NC(=O)[C@H](Cc1c[nH]c2ccccc12)NC(=O)[C@H](CCC(N)=O)NC(=O)[C@@H](NC(=O)[C@H](Cc1ccccc1)NC(=O)CCCCCNC(=O)CN1CCN(CC(=O)O)CCN(CC(=O)O)CCN(CC(=O)O)CC1)C(C)C)C(=O)N[C@@H](CCC(=O)O)C(=O)N1CCC[C@H]1C(=O)N[C@@H](CC(=O)O)C(=O)N[C@H](C(=O)N[C@@H](CO)C(=O)N[C@@H](CCC(N)=O)C(=O)N[C@H](C(=O)N[C@@H](CCC(N)=O)C(=O)N[C@@H](CC(=O)O)C(=O)N1CCC[C@H]1C(=O)N[C@@H](CC(N)=O)C(=O)N[C@@H](CC(=O)O)C(=O)N[C@@H](CCC(N)=O)C(=O)N[C@@H](Cc1ccc(O)cc1)C(=O)N[C@@H](CCC(=O)O)C(=O)N1CCC[C@H]1C(=O)N[C@@H](Cc1ccccc1)C(=O)O)C(C)C)C(C)C [copper-64 labelled]; system = C57BL/6 mice, male, tumour-free, stomach; setting = 1 h; measurement = tissue uptake; result = 3.24 ± 0.7 %ID/g
Structure (SMILES) = COc1ccc(C([O-])=CC(=O)c2ccc(C(C)(C)C)cc2)cc1.[Ru+2].c1ccc(-c2cccc(-c3ccccn3)n2)nc1.c1cnccn1; system = zebrafish larvae; setting = 10 µM; measurement = toxicity; result = 100%
Structure (SMILES) = CC[C@H](C)[C@H](NC(=O)[C@H](Cc1ccc(O)cc1)NC(=O)[C@@H](NC(=O)[C@H](CCCNC(=N)N)NC(=O)[C@@H](N)CC(=O)O)C(C)C)C(=O)N[C@@H](Cc1c[nH]cn1)C(=O)N1CCC[C@H]1C(=O)O; system = Beagle dog; setting = sc, 10 mg/kg once daily, 28 days; measurement = tolerability; result = not toxic
Structure (SMILES) = O=C1NC2(CC2)COc2ncc(F)cc2[C@H]2COCCN2c2ccn3ncc1c3n2; system = Sprague-Dawley rat, female, adrenals; setting = oral, 2.5 mg/kg/day, 4 weeks; measurement = organ weight; result = 0.075 ± 0.01 g

Repeated from above:
Structure (SMILES) = CC(C)[C@@H]1NC(=O)CNC(=O)[C@H](CC(N)=O)NC(=O)[C@H](CCCNC(=N)N)NC(=O)[C@H](Cc2ccc(O)cc2)NC(=O)[C@H](C(C)C)NC(=O)[C@@H](NC(=O)[C@@H](NC(=O)[C@H](CC(N)=O)NC(=O)[C@H](Cc2c[nH]c3ccccc23)NC(=O)[C@H](C)NC(=O)[C@H](Cc2ccccc2)NC(=O)CNC(=O)[C@H](CCCCN)NC(=O)[C@H](Cc2ccccc2)NC(=O)[C@H](Cc2ccccc2)NC(=O)[C@H](CCCCN)NC(=O)OCC2c3ccccc3-c3ccccc32)C(C)C)CSSC[C@@H](C(=O)N[C@@H](Cc2c[nH]cn2)C(=O)N[C@@H](CCCNC(=N)N)C(=O)N[C@@H](CCCNC(=N)N)C(=O)N[C@@H](C)C(=O)N[C@@H](CC(N)=O)C(N)=O)NC(=O)[C@H](C(C)C)NC(=O)[C@H](CCCNC(=N)N)NC1=O; system = ICR mouse, blood; setting = intramammary, 10 mg/kg, day 5, 3 d dosing; measurement = MCV; result = 40.9 ± 0.54 fL
Structure (SMILES) = CC[C@H](C)[C@H](NC(=O)[C@H](CCCCN)NC(=O)CNC(=O)[C@H](CC(C)C)NC(=O)[C@H](Cc1ccccc1)NC(=O)[C@H](CCCCN)NC(=O)[C@H](CO)NC(=O)[C@H](Cc1ccccc1)NC(=O)[C@H](Cc1c[nH]c2ccccc12)NC(=O)[C@H](CCC(N)=O)NC(=O)[C@@H](NC(=O)[C@H](Cc1ccccc1)NC(=O)CCCCCNC(=O)CN1CCN(CC(=O)O)CCN(CC(=O)O)CCN(CC(=O)O)CC1)C(C)C)C(=O)N[C@@H](CCC(=O)O)C(=O)N1CCC[C@H]1C(=O)N[C@@H](CC(=O)O)C(=O)N[C@H](C(=O)N[C@@H](CO)C(=O)N[C@@H](CCC(N)=O)C(=O)N[C@H](C(=O)N[C@@H](CCC(N)=O)C(=O)N[C@@H](CC(=O)O)C(=O)N1CCC[C@H]1C(=O)N[C@@H](CC(N)=O)C(=O)N[C@@H](CC(=O)O)C(=O)N[C@@H](CCC(N)=O)C(=O)N[C@@H](Cc1ccc(O)cc1)C(=O)N[C@@H](CCC(=O)O)C(=O)N1CCC[C@H]1C(=O)N[C@@H](Cc1ccccc1)C(=O)O)C(C)C)C(C)C [copper-64 labelled]; system = C57BL/6 mice, male, tumour-free, stomach; setting = 1 h; measurement = tissue uptake; result = 3.24 ± 0.7 %ID/g
